Assay results pooled from the literature.
Every numbered part comes from another study and shows a few of its results, in no order.

Set 1
Target: Fragile X messenger ribonucleoprotein 1, C-terminal low-complexity region (Fmr1, Mus musculus, UniProt P35922)
Method: RNA Bind-n-Seq
Form: RNA
Matrix: in vitro
Tested at: 200 nM
Notes: whole 134-nt RNA, ends assumed
Added: 150 mM KCl
Baseline: input library
Reading: higher = stronger binding
Shared flanks, not repeated: GGGAGUUCUACAGUCCGACGAUC … UGGAAUUCUCGGGUGUCAAGG
Sequence	log2 enrichment
GCAGGAAGUAAAAACAAAUGGAAAUGCUUCGGAUAGUGGCAGGGUUGGGGGUUGCUAAGGAAAGGGUGGGAUGGGAGUGGGUAAAGAGUU	0.124
CCUCAAGUCCUGUGCUACACAUCGUAUGUACCGAAUCGGGGUGGUGGUGGGGAAAGUAUUAUGUUACGCCGUUCGGAUCUGCACUUCCAG	0.917
UCAAGUCCUGUGCUACACAUCGUAUGUACCGAAUCGGUUGGGGUUGGGUUGGGGAAAGUAUUAUGUUACGCCGUUCGGAUCUGCACUUCC	1.08
UUACGAUUAUAUCACCCGGACACACAUCAUGCUUAAGAUUCAACUGGGAGCAUACCAGGGAUGCUCUCUAACGUAAUCAAGGGAAGGUUC	-1.39
UGGCCCUGGUGGCAUGCGGCGAGGAAGAGGUGGCCUCAUGGAUCGUGGUGGUCCCGGUGGAAUGUUCAGAGGUGGCCGUGGUGGAGACAG	0.169
UGGGAGGUGGAUUUUGUUUAUUUUUUUAGCUCAUUUCCAGGGGUGGGAAUUUUUUUUUAAUAUGUGUCAAGAAUAAAGUUGUUUUUGAAA	0.261
UUGCAGAUGAGCUUAUGGGGGGCAAUCUUAAAAAGUCCACAGCAGAUGCAUCCGGCUCGAGGGGCCAUCAGCUUUGAAUAAAUGCUUGUU	-0.00931
AGUCCUGUGCUACACAUCGUAUGUACCGAAUCGGGUUUGGGAAAAAGGGAAAAAGGGAAAGUAUUAUGUUACGCCGUUCGGAUCUGCACU	0.039
GCAGGAAGUAAAAACAAAUGGAAAUGCUUCGGAUAGUGGCAGGGGUGGGGGUUGAUAAGGAAAGGGUGGGAUGGGAGUGGGUAAAGAGUU	-0.00717
UUCAGUAAAAUGGCAGAAGAGAAACUGACCCACAAAAUGGAAGCUAAUAAAGAGAACCGAGAGGCACAAAUGGCUGCCAAACUGGAACGU	-0.793

Set 2
Target: Histone acetyltransferase KAT6A, winged helix 1, GST fusion (KAT6A, Homo sapiens, UniProt Q92794, residues 1-85)
Method: protein binding microarray
Form: double-stranded DNA, one strand shown
Matrix: in vitro
Tested at: not given
Notes: 8-mer, flanks averaged, mean of 2 arrays, mostly near background
Baseline: not given
Reading: higher = stronger binding
Construct (chain): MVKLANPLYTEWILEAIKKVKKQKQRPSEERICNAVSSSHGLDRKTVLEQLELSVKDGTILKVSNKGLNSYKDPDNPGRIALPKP
Sequence	E-score
ATGGTATA	-0.207
AGTCAGGG	-0.112
CGGAAACA	0.27
CACCCACA	-0.144
GCAGCTGA	0.0215
ATACACAT	-0.106
ACGTGTCA	-0.215
AATGAGGA	-0.24
AAGGTACA	-0.189
ACTAGGAG	-0.141
GTTCACGA	-0.106
CCGCTGGC	0.264
CATTTTGG	-0.108
ACCAATGA	-0.191
CAATTACG	0.13
CGCAAGGC	0.0668

Set 3
Target: Interferon regulatory factor 5, full length, phosphomimetic (IRF5, Homo sapiens, UniProt Q13568-2, residues 1-514, K96S/S451D/S453D/S456D/S462D)
Method: protein-binding microarray
Form: double-stranded DNA, one strand shown
Matrix: in vitro
Tested at: 250 nM
Notes: 60-bp whole probe
Added: salmon DNA 0.4 mg/ml
Baseline: random background probes
Reading: higher = stronger binding
Shared flanks, not repeated: GCCTAGCAC … GTCTTGATTCGCTTGACGCTGCTG
Sequence	log fluorescence
TTGGGTTTCCTTATCCTTTAGTGCTAG	0.686 z-score
GACGGTAGCGGACTGGGGACGTGCTAG	-0.352 z-score
GTAGATCTCAGTATCGATTAGTGCTAG	6.25 z-score
TTAGGACTGGACAGTGGGTTAGTGCTA	-0.129 z-score
GGAGGCCTCTTCATTCATTAAGTGCTA	-0.172 z-score
TGTCCTTTCTCCATGGGTATGTGCTAG	1.24 z-score
GACGTTTTCGGTATCGGGACGTGCTAG	9.14 z-score
TTAGATATCGGGACTGGATTTGTGCTA	1.35 z-score
GACGGACTGGGGTATCGGGAGGTGCTA	-0.13 z-score
TCCTCTTTACTGCTCCACACGTGCTAG	0.16 z-score
GACGGTCTCCTACTACTGACGTGCTAG	-0.204 z-score
GACGTTCTCAGTTTCGAGACGTGCTAG	4.65 z-score
TTAGGTATCCTTCTCCTCTAGTGCTAG	0.237 z-score
GACGATCTCAGACTGTAGACGTGCTAG	-0.378 z-score
TTCAGTTTCACTGCTGCCCTGTGCTAG	5.48 z-score
TTAGGTTTCGTCACTGGGTTAGTGCTA	3.86 z-score
GTAGGTTTCGGTCTCGGTTAGTGCTAG	10.2 z-score

Set 4
Target: Hepatocyte nuclear factor 3-alpha (Foxa1, Mus musculus, UniProt P35582, residues 1-468, full length assumed)
Method: EMSA with sequencing
Form: double-stranded DNA, one strand shown
Matrix: in vitro
Tested at: 10 and 20 nM
Notes: whole designed probe, mean of two concentrations, ends assumed
Baseline: negative control set to 0
Reading: higher = stronger binding
Shared flanks, not repeated: GTGAGCGGTGCCCATTGATGGGGAAC … TTTCACTGGGATCGTGGGGAC
Residues (chain): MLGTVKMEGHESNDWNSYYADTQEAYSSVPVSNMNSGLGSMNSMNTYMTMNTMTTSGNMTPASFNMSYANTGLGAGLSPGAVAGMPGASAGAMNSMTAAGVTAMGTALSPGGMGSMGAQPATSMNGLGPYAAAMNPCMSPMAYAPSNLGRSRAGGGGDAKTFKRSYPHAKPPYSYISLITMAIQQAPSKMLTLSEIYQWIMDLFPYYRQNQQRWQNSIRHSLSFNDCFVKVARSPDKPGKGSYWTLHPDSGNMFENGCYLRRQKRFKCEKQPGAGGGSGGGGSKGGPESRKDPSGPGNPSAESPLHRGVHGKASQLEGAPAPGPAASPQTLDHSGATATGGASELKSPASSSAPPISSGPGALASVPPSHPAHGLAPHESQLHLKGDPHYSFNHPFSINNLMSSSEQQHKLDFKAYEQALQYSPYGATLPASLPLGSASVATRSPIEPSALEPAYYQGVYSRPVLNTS
Sequence	normalised bound fraction
GTGTTATGTGTTCTTTGAATACCTTATTGACAAGAACTATAACTTTTCCAGGCTCAGATGCTTTTTTCTTCTTGTCTAAGTGATCCTTGGCAATGTAATCTGCCACTCTGGTTTTTCCACTCCCTGTAGGGAGGCAGATGATGATATTCTTCCCTTCCAAGGCTGGCTGGGCAACTTCCATTTGGTAAGGCCT	-0.0276 ratio
AGTCTTTACAAATCAAAGAGACAGCACTGCTTTTGCTGAAGCGGGACAAAAATACCTCAAGGCACAACTCCTCCGTGCGCTTATCCCCTGCAGTGTAATCTGGGCCAATTCAATGGGTATTGTTTCCTTTACTTAGGCAGGATGATTTCCCTCAACTCTTAAGGAATCCAGGACTTTCCAGACCATTTCATCA	-0.0628 ratio
TTCTTCACTCTTCTCAGGCTGCTGTAAAACAGAATTGATAAAACCACATGTTTCAACTATTATTACAGTTTACATTGTAAGGAAATTTGCCTATGTAATCTAAAAAATGGAGAAAAAAGAGACTCATGTAACTTCTTTTGTAAATAGATGTATTGGGTTAGTAGCAGAACAACTGGGATTGTGAAAACAAAAA	0.201 ratio
TATACTTGCATTTAATTTATACTAATTCTACTATGTGTTTCACCAAAAATAAATTGAAAAGGATACTGCTCACTCAGTGAACACATGCTCCAGAGTAATCTTGAAATGAGCAATGTGAATGGGGCATTCACGTTTCACAAATTGAACAGTTTTGATGGTGAGGGCAAAGTGTCACTCACCCTTATGCTTATGA	-0.0351 ratio
ATGTGCTAAAAATACAAGACTTGCTTACGCAGAGAGCCGGGAGCTATGTTCCAGTGAGGGTGGAAACAAAAGCCTCAGTATAAGACTGTCAGGTGTTTACACTTGCTCATGTGGCAACACAAGGGTGTGGTGAGGTTGCTGGACTCCACATGCTGAGGCTCAAAGTAGAAATCACTGATCTTATGTCACATAT	0.167 ratio
ATCTGAAGGTTCTCAAGATCCTAAATGACTTCTGAAATTAAATTATGTTCAGTAAAAAGCTAAGTTAAACTCTTTAGGTTTTGAATAAACCTAAGTAATCTACAATTTTGTTGCACTAAAATAATACCTATCTTAAAAGTGGTTTCCCCAAACTATTAGCCAATCTCTTTCTCTAACCAAGCACTATTTTACC	-0.0528 ratio
TTCTCAACAAAATTCCCACATTTATTGCTCCTCTTCTTGCTCCTGGGTTTACCTTCCTTGAATGATGATGGCATGTTTACAGTAACTCCCAGTGTTTACATTACAACTCCCAATGTTTACACTCCTTTTGTTTACATCAGGTCCCAATAATGAGGACAACTTTCTTATAGAGTGAACCTCAGTCCCCCATTAC	0.525 ratio
AGGCACAAGGTATGAATCACTAAGAATCTAGCAGCAGCTCTAGAAGCCTCCAAAGATAATTGCACTTCCCCAACAGGGGGACGGGCGTCGAGTGTAAATATGAAAGAACAGTGGATGGCCTAAATCAGTATGTGTCACTCTTTGTAAAGAGCCACAAGTGTTTGACTAGGGAAAAAGGAAAAGAGGCGAGAGT	0.174 ratio

Set 5
Target: RING finger protein unkempt homolog, zinc fingers 1-6, GST-SBP tag (UNK, Homo sapiens, UniProt Q9C0B0, residues 30-357)
UniProt Q9C0B0, sequence (30-357, looked up): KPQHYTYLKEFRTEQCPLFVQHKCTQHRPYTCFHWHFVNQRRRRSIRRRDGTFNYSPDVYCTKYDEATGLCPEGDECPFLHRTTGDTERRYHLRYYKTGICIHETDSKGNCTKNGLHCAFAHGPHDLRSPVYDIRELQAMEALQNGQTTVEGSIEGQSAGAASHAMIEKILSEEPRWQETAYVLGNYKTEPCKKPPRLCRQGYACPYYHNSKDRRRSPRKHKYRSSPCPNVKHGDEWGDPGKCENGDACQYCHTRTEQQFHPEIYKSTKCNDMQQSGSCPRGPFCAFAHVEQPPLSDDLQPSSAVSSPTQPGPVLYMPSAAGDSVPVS
Method: RNA Bind-n-Seq
Form: RNA
Matrix: in vitro
Tested at: not given
Notes: RNA with constant flanks, human and mouse sites, ends assumed
Baseline: input RNA pool
Reading: higher = stronger binding
Shared flanks, not repeated: GGGAGUUCUACAGUCCGACGAUC … CAACAGAGGAUUGAGCAUCA
Sequence	bound/input enrichment [ratio]
CCUACAAUAAUGAAAACCUACAGGAAUUUUUUUAUUUUUCAUUUUCCCCUUAGGCAUAUUUAGUAUUUUUCCCCCAGGCAGAUCAUUCUGAGUGUGCGAGUGUGUGUGCACAUGUUACAA	90.3
GUGAUUGAGAGUUCUGAAUCCCUGGACUGUCAGUUACUGGCUGUCACUCACGCAGGUGUAAGGCUGUAUUUCAGCACUUGUCCGUUUAGACAGCCAUUAGCUCGGCCGAAUACACUGACA	0.138
GUCUACUGGAACUCGGCGAAUAAGAGGUUCCAGGCAGAGGGCGGUUACGUGCUUUAUCCUCAGAUCGGGGACCGGCUAGAUCUACUUUGUCCCCGGGCUCGGCCUCCUGGCCCCCACUCC	0.396
GAAGACACAGAGGCAAAGAAUCCAUUUUCAACUCAGGACACUGAUUUAGAUUUGGAGAUGCUGGCUCCCUAUAUCCCAAUGGAUGAUGAUUUCCAGUUACGUUCCUUUGAUCAGUUGUCA	0.169
AGCAGAAGCAGGAACGUCAGAAGUUGAAGGGCAUCCUCAGCUGUCCGCGAGUUCUGUAGGACAUUCCAAUUUGGAUUUUUAUUAUUGCUGGAAAAAAGUUUGCUUUACCCCAGACUUGAA	0.259
GCUCUUGCAUAUGGAAUCUAUAAGCAGGAUCUUCCUGCCUUAGAAGAGAAACCAAGAAAUGUAGUUUUUGUAGACAUGGGCCACUCUGCUUAUCAAGUUUCUGUAUGUGCAUUUAAUAGA	0.36
ACUUUUGAUUUCUCAGAAGAGGAGGAUGAUGAUGCUGCUGCUGCUGAUGACAGUAAUGAUUUAGAAGAACUGAAAGUUAAAGCAUCUCCCAUAACAAAUGAUGGGGAAGAUGAAUUUGUU	0.655
CCAUGUCAGCGUCCCCGUCCUGUUCCCAGCUGCCUGUGGAAGAUGACGUUUAUGUAUGCGAAUAAGUCACACUGUUAACCAAGUCUCUCAGGAGUGUAGUGAUAGCUGCCACACUCUGGA	0.203
CCGCCCAUCCGCCUUUCUCUCGGAAUAUUUUGGGAUCCAACCCUCUCUCUAAUUUUGGCCCCUAAUAACUCACUGAGACCCUAAAACAAUGGGCUGACGCUUAUUCUUUUGCCCGCGAUC	0.56
AGUGUUUCUCAUCAUCUGUUUCCCAGCAAGGUCUUUUUUUUUUCUACAUUGAAGUUCUGUCUAUGUAUCUUAAUCACAAAUGGUUUCAUUCACUUUACUUUUAAAAAUUUGUCCUUAAAU	0.223
GUUCCAAAGUGAGGUCCCUCCCAAAGUUGUUUUCGUGUGAGGCAGAGAAAGCCACACUCUGAAUACAUUUUAUGUCUCAGGAAUUCACAUUCCAGGUUCAGGAAUUUUAUUCCAAAGUCC	0.229

A few entries again (set 3):
Sequence	log fluorescence
GACGTTCTCAGTTTCGAGACGTGCTAG	4.65 z-score
GACGGACTGGGGTATCGGGAGGTGCTA	-0.13 z-score
GACGGTAGCGGACTGGGGACGTGCTAG	-0.352 z-score
GGAGGCCTCTTCATTCATTAAGTGCTA	-0.172 z-score
TGTCCTTTCTCCATGGGTATGTGCTAG	1.24 z-score
TTAGGACTGGACAGTGGGTTAGTGCTA	-0.129 z-score
TTAGATATCGGGACTGGATTTGTGCTA	1.35 z-score
TTAGGTTTCGTCACTGGGTTAGTGCTA	3.86 z-score
TTCAGTTTCACTGCTGCCCTGTGCTAG	5.48 z-score
TCCTCTTTACTGCTCCACACGTGCTAG	0.16 z-score
TTAGGTATCCTTCTCCTCTAGTGCTAG	0.237 z-score
